Measured values pooled from the literature.
Numbered parts are unrelated; each lists some results of a single study.

Study 1
Target: Transcription factor Sp1 (SP1, Homo sapiens, UniProt P08047, residues 1-785, full length assumed)
Sequence of UniProt P08047 (whole entry, looked up): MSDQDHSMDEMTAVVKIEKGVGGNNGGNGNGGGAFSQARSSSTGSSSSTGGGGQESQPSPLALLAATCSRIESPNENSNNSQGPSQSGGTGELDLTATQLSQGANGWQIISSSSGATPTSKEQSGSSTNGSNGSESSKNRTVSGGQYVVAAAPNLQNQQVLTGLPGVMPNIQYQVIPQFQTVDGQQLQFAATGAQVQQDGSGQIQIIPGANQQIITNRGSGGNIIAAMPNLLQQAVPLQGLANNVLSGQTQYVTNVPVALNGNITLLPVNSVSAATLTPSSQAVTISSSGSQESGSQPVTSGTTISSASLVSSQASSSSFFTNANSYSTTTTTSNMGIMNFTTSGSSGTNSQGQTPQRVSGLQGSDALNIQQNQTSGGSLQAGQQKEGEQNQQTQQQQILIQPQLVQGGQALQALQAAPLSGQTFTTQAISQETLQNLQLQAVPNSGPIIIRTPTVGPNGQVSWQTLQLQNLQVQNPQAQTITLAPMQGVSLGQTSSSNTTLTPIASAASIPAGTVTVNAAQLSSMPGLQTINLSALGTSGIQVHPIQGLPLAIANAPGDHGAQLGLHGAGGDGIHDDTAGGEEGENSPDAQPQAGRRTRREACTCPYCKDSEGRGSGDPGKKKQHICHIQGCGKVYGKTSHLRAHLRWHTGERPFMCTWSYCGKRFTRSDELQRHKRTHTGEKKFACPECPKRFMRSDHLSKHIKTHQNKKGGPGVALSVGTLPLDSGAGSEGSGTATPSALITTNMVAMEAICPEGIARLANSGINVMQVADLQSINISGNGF
Technique: protein-binding microarray
Molecule type: double-stranded DNA, one strand shown
Sample: in vitro
Tested at: not given
Notes: k-mer, scored over probes, only values ≥0.25
Reading: higher = stronger binding
Sequence	E-score
GCCCGCCC	0.48
GCCCCTAC	0.292
CGCGTTAC	0.264
ATGGTGTG	0.251

Study 2
Target: Sal-like protein 4, full length isoform B (SALL4, Homo sapiens, UniProt Q9UJQ4-2, residues 1-616)
Technique: universal PBM
Molecule type: double-stranded DNA, one strand shown
Sample: in vitro
Tested at: not given
Notes: 8-mer, flanks averaged, mean of replicates
Reading: higher = stronger binding
Residues (chain): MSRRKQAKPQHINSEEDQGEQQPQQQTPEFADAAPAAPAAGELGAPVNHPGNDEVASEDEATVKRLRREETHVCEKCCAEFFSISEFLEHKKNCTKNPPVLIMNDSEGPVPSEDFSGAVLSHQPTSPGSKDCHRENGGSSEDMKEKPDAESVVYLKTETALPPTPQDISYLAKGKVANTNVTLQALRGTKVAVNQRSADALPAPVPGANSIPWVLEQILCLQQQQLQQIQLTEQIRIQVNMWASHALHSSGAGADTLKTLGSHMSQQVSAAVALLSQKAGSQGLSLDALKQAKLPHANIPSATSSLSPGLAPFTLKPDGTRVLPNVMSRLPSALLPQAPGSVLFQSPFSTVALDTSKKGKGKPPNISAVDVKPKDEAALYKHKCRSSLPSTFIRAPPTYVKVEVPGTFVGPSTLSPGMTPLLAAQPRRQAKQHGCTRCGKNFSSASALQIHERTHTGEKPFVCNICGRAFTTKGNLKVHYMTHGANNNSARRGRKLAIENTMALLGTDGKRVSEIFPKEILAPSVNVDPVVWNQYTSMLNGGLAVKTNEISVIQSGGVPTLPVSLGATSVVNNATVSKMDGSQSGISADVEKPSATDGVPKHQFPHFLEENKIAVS
Sequence	E-score
AACGGACT	-0.0312
TAAACCAA	0.236
CCCGGTAA	-0.176

Study 3
Target: Phosphate system positive regulatory protein PHO4, full length, GST-tagged (PHO4, Saccharomyces cerevisiae, UniProt P07270, residues 1-312)
Technique: competition protein-binding microarray
Molecule type: double-stranded DNA, one strand shown
Sample: in vitro
Tested at: 2 µM
Notes: whole 60-bp probe, lowest competitor level
Added: Cbf1 competitor, 0.05 µM
Reading: higher = stronger binding
Residues (chain): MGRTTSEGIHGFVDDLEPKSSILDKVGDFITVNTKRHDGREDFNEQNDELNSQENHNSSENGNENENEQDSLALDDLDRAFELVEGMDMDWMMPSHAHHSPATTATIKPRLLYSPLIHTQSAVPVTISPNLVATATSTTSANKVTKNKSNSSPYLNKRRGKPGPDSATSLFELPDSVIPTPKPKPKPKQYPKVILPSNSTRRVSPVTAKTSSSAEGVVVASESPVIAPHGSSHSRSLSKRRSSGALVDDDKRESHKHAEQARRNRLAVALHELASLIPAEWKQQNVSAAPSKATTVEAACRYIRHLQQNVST
Sequence	fluorescence intensity [a.u.]
GGAAGGTGGCACCATCACCTGGGGAAATTCTGTCAAGTCTTGATTCGCTTGACGCTGCTG	3670
AATCATTTAGTCCATCACGTCAACCTGTCTAAAATAGTCTTGATTCGCTTGACGCTGCTG	4270
TGCGCAACAACTTGGCTGGTGGGTGTATGTCTAGAAGTCTTGATTCGCTTGACGCTGCTG	4620

Single results of other studies
Substance	target	assay	system	setting	scale	quantity	result
PhoQ, residues 284 288 289 292 302 303 NLALSC	PhoP, residues 12 14 15 18 19 FWNTL (Escherichia coli, UniProt P23836)	Sort-seq, refers to: YFP reporter	E. coli	PhoQ-PhoP variant library, added: 10 µM Mg2+	baseline: high Mg2+ state, higher = stronger signaling	fold induction	2.49

For quick reference, copied from above (study 1):
Sequence	E-score
GCCCGCCC	0.48
